Published values gathered from unrelated publications.
Protocols differ between the studies behind these lines. ± gives the spread as reported.
BCHE: Cholinesterase (BCHE, Equus caballus, UniProt P81908)
Sequence of UniProt P81908 (whole entry, looked up): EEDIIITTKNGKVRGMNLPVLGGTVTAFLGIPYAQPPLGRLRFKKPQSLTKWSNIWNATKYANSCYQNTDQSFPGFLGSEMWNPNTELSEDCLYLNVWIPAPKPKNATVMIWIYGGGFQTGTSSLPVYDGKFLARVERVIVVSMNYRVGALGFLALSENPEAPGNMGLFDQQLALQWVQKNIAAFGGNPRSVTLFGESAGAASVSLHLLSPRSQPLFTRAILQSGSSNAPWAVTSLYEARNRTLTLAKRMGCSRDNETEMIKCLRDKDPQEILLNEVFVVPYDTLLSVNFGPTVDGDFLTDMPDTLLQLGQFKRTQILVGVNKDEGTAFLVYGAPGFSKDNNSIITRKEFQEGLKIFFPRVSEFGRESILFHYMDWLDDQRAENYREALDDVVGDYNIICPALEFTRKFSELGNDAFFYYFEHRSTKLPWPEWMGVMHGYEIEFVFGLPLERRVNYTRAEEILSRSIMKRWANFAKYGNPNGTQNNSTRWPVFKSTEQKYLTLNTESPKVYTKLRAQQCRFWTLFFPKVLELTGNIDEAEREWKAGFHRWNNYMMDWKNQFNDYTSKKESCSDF
Sequence of UniProt P49683 (whole entry, looked up): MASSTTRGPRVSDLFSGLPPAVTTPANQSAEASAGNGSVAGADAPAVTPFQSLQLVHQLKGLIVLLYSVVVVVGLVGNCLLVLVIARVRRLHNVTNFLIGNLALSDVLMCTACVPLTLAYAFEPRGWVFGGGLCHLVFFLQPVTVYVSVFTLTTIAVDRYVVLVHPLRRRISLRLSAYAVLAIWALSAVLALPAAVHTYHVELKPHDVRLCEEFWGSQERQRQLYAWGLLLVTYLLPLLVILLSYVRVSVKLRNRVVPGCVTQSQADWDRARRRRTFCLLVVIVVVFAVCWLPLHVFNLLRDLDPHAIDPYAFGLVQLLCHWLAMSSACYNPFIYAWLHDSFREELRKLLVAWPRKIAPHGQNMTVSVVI
Sequence of UniProt Q04912 (whole entry, looked up): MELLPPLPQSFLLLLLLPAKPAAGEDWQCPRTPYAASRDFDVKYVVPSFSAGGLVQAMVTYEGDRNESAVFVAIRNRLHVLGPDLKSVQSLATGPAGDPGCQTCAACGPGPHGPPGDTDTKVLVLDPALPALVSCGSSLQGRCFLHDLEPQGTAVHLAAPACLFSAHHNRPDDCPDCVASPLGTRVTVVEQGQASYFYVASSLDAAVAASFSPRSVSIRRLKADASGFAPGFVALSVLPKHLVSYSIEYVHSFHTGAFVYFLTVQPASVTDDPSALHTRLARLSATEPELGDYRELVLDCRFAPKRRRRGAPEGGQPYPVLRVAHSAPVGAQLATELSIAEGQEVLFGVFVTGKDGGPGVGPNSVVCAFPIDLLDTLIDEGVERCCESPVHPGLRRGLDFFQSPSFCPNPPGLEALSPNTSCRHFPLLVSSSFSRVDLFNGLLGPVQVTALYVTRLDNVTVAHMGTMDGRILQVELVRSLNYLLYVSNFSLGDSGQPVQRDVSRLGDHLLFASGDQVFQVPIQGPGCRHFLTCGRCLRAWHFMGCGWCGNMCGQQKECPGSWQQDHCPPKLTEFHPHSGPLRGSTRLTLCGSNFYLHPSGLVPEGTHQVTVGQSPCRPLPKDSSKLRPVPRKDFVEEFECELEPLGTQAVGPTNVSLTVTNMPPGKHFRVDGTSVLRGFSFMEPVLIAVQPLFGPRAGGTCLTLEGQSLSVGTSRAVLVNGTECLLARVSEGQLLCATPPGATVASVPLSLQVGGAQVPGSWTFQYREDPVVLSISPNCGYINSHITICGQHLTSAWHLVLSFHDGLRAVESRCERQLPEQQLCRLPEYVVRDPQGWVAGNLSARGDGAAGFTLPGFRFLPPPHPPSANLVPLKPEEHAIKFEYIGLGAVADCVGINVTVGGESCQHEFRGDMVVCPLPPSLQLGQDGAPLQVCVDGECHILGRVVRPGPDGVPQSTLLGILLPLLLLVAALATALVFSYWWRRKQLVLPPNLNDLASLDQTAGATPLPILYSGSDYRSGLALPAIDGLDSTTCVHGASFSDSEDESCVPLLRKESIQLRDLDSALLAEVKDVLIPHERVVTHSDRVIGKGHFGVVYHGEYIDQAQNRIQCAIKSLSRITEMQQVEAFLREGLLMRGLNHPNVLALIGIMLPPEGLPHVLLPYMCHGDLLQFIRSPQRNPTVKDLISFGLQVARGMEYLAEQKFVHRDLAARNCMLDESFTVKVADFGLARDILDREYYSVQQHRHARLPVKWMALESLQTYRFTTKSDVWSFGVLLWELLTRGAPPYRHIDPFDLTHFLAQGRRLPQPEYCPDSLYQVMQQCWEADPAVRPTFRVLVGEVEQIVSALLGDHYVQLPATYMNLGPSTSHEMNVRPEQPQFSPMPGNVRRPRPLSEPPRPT
Sequence of UniProt O95819 (whole entry, looked up): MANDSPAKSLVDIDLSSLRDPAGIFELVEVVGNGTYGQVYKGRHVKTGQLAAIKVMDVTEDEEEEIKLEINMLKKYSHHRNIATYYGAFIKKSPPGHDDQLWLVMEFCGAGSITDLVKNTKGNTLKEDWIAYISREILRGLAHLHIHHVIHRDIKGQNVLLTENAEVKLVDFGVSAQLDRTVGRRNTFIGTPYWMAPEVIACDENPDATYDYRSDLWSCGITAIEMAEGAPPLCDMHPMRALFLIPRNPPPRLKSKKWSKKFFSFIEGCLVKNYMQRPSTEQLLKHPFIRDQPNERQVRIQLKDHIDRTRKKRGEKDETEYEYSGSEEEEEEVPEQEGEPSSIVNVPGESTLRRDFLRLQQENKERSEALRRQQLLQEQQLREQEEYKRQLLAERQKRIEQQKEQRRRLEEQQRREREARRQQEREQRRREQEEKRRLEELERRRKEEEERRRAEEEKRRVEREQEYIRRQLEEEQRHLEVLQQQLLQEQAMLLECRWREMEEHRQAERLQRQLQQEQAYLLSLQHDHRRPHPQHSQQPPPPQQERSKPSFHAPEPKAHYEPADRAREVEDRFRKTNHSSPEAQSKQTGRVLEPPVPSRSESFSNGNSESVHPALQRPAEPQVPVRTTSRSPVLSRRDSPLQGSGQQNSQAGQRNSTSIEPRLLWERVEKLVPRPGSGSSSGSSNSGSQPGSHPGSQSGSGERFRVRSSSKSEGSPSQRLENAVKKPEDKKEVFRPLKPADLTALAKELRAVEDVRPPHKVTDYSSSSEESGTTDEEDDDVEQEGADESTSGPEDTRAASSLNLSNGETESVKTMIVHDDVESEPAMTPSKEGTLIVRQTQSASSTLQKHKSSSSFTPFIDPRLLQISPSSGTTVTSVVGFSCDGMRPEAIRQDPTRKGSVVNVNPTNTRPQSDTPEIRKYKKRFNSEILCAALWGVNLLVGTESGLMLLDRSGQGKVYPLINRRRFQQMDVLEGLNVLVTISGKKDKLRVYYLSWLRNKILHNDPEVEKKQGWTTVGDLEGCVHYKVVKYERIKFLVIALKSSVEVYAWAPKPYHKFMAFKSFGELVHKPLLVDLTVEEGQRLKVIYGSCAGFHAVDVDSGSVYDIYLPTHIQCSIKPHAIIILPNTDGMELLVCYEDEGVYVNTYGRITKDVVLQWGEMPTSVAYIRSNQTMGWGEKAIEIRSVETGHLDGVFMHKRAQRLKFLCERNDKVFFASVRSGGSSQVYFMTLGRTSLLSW
Sequence of UniProt P25101 (whole entry, looked up): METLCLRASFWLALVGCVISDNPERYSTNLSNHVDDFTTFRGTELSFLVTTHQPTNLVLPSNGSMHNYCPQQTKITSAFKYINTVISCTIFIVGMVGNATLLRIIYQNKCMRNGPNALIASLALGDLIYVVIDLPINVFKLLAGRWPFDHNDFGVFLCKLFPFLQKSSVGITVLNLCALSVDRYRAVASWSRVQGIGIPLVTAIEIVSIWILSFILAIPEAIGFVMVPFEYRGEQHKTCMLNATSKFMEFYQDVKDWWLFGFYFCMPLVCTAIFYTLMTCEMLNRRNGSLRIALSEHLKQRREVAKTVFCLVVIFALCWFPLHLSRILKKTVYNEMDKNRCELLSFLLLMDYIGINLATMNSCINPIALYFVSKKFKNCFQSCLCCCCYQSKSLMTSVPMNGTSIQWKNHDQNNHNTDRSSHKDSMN
Sequence of UniProt Q16620 (whole entry, looked up): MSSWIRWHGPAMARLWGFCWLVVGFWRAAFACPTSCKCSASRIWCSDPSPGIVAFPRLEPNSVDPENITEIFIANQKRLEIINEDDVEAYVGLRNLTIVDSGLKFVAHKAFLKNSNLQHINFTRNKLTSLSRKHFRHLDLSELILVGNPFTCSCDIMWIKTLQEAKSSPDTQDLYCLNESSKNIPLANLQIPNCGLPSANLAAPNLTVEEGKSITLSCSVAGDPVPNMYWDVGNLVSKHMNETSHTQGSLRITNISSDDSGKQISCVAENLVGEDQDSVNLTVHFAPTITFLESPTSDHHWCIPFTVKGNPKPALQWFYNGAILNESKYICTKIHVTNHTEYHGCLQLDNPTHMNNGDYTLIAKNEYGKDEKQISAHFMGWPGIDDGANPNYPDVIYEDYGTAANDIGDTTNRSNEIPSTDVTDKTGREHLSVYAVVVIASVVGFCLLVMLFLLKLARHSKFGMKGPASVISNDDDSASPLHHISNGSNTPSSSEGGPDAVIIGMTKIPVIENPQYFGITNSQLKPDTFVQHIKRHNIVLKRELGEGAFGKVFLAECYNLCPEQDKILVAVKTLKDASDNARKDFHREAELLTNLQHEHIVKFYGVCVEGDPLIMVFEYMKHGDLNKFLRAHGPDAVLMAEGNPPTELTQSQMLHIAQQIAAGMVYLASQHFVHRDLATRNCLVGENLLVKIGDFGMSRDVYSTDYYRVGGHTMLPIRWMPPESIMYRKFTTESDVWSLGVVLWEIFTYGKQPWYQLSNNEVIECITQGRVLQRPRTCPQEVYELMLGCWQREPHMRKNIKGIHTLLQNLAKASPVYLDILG

| SMILES | target or system | test | test system | setting | quantity | value |
| --- | --- | --- | --- | --- | --- | --- |
| CC(C)N | BCHE | enzyme activity, inhibitor, Ellman |  | 20 µM | inhibition | 38.3% |
| CCCCCCCCCCCCCCCCCC(=O)NC[C@H]1CC[C@H](C(=O)N[C@@H](CCC(=O)NCCCOCCOCCOCCCNC(=O)COCC(=O)N[C@@H](Cc2ccc(O)cc2)C(=O)NC(C)(Cc2ccccc2)C(=O)N[C@@H](CC(C)C)C(=O)N[C@@H](CCCC)C(=O)N[C@@H](CCCNC(=N)N)C(=O)N2CCC[C@H]2C(=O)N[C@@H](CCCNC(=N)NC)C(=O)N[C@@H](CC(N)=O)C(N)=O)C(=O)O)CC1 (stereo partly drawn) | Prolactin-releasing peptide receptor (PRLHR, Homo sapiens, UniProt P49683) | antagonist, DiscoverX GPCR panel |  | 1 µM | inhibition | 58% |
| CS(C)(=O)=Nc1ccc(-c2ccc(-c3nc4cc(O[C@@H]5CO[C@H]6[C@@H]5OC[C@H]6O)[nH]c4cc3F)cc2)cc1 | BDNF/NT-3 growth factors receptor (NTRK2, Homo sapiens, UniProt Q16620) | enzyme activity, inhibitor |  | 10 µM | inhibition | -19% |
| O=C(CN1CN(c2ccccc2)C2(CCN(C(=O)c3cnc4[nH]ncc4c3)CC2)C1=O)NCC(F)(F)F | Casein kinase I isoform gamma-3 (CSNK1G3, Homo sapiens, UniProt Q9Y6M4) | inhibitor |  | concentration not given | inhibition | < 50% |
| NCC1CC1 | BCHE | enzyme activity, inhibitor, Ellman |  | 20 µM | inhibition | 30% |
| O=C(O)c1ccccc1/C=N/Nc1nc(-c2ccccc2Cl)cs1 | Macrophage-stimulating protein receptor (MST1R, Homo sapiens, UniProt Q04912) | enzyme activity, inhibitor |  | 1 µM | inhibition | -15.7% |
| CN(C)[C@H]1C[C@@]23CC[C@@]4(O2)C(=CC[C@]2(C)[C@@H](c5ccc6ccncc6c5)CC[C@H]24)C=C3[C@@H](O)[C@@H]1O | Mitogen-activated protein kinase 1 (MAPK1, Homo sapiens, UniProt P28482) | ATP probe labelling, inhibitor, KiNativ profiling |  | 1 µM | inhibition | 8.4% |
| N[C@H](C(=O)N1CCCC1)C1CCN(c2nccc3c(-c4ncc(Cl)cc4Cl)cccc23)CC1 | Mitogen-activated protein kinase kinase kinase kinase 4 (MAP4K4, Homo sapiens, UniProt O95819) | kinase activity, inhibitor |  | 10 µM, with: ATP 1 mM | inhibition | -16.7% |
| CC(C)[C@H]1NC(=O)C[C@H]2/C=C/CCSSC[C@@H](NC1=O)C(=O)N[C@H](Cc1cccc3ccccc13)C(=O)NCC(=O)O2 | Serine/threonine-protein kinase PAK 6 (PAK6, Homo sapiens, UniProt Q9NQU5) | enzyme activity, inhibitor |  | 10 µM | inhibition | -19.6% |
| CC(=O)NC[C@@H]1[C@@H](O)C[C@H]2[C@H](O)C[C@@H](CO)N12 | Spodoptera litura β-N-acetylglucosaminidase |  | crude enzyme | 0.107 µM, run 2, with: p-nitrophenyl GlcNAc | inhibition | 18.3% |
| O=C1NC2(CC2)COc2ncc(F)cc2[C@H]2COCCN2c2ccn3ncc1c3n2 |  |  | Sprague-Dawley rat, male, spleen | oral, 5 mg/kg/day, 4 weeks dosing, end of recovery | organ-to-body weight ratio | 0.226 ± 0.021% |
| N#Cc1ccc(N2N=C3c4ccc(C(=O)O)cc4CCC3C2C2CCCC2)cc1Cl (stereo not drawn) | DNA (cytosine-5)-methyltransferase 3A, with DNMT3L (DNMT3A, Homo sapiens, UniProt Q9Y6K1) | enzyme activity |  | 10 µM | inhibition | 3% |
| COc1ccc(F)cc1S(=O)(=O)Nc1cnc2c(c1)C(=O)NCCO2 | Metabotropic glutamate receptor 5 (GRM5, Homo sapiens, UniProt P41594) | ligand displacement, radioligand |  | 10 µM | inhibition | 0% |
| CN(/N=C/c1ccccc1C(=O)O)c1nc(-c2ccccc2Cl)cs1 | Serine/threonine-protein kinase Nek9 (NEK9, Homo sapiens, UniProt Q8TD19) | enzyme activity, inhibitor |  | 1 µM | inhibition | -15.3% |
| C[C@H](NCc1ccc(-c2ccc(C(F)(F)F)cc2)cc1)C(N)=O | GABAA receptor chloride channel, rat | binding, radioligand binding | biochemical | 1 µM, with: [3H]TBOB 3.0 nM | inhibition | 0% |
| CC(C)CC1NCCc2cc(O)c(O)cc21 (stereo not drawn) | Alpha-glucosidase MAL12 (MAL12, Saccharomyces cerevisiae S288c, UniProt P53341) | enzyme activity, inhibitor |  | 100 µM, DMSO solvent, with: pNPG substrate | inhibition | 42.7 ± 2.2% |
| CCCCC1(C2CCCC2)Cc2cc(OCCCC(=O)O)c(Cl)c(Cl)c2C1=O (stereo not drawn) | Anoctamin-1 (Ano1, Mus musculus, UniProt Q8BHY3) | ion current, inhibitor | HEK293 transfected | 10 µM, at +80 mV | inhibition | 52.9 ± 2.3% |
| O=[N+]([O-])c1cccc(Cn2cc(CCS(=O)(=O)F)nn2)c1 | BCHE | enzyme activity, inhibitor, Ellman |  | 20 µM | inhibition | 38.1% |
| CCOC(=O)[C@](CC)(CCCSCCOCCOCCNC(=O)c1ccc(-c2c3ccc(=N)c(S(=O)(=O)O)c-3oc3c(S(=O)(=O)O)c(N)ccc23)c(C(=O)O)c1)NC(=O)c1ccc(C2CC2)c(Cc2ccc(F)cc2)n1 | Xanthine dehydrogenase/oxidase (XDH, Bos taurus, UniProt P80457) | enzyme activity, inhibitor |  | 10 µM | inhibition | -6% |
| CN[C@@H]1[C@H](O)[C@H](NC)[C@H]2O[C@]3(O)[C@H](O[C@@H]2[C@H]1O)O[C@H](C)C[C@H]3NC(=O)Cc1cc(Cl)ccn1 | Endothelin-1 receptor (EDNRA, Homo sapiens, UniProt P25101) | ligand displacement, radioligand |  | 10 µM | inhibition | -3% |
| O=C(N1CCCCC1)n1ccnn1 | Platelet-activating factor acetylhydrolase 2, cytoplasmic (Mus musculus, UniProt Q8VDG7) | serine hydrolase activity, inhibitor, competitive gel-based ABPP | mouse T-cell proteome | 1 µM, 30 min, 37 °C | inhibition | 50 to 95% |
| O=[N+]([O-])c1ccc(/C=N/C23CC4CC(CC(C4)C2)C3)o1 | Procathepsin L (CTSL, Homo sapiens, UniProt P07711) | enzyme activity, inhibitor |  | 100 µM, with preincubation | inhibition | 6% |
| NCCc1ccccn1 | BCHE | enzyme activity, inhibitor, Ellman |  | 20 µM | inhibition | 37.2% |
| CN[C@@H]1[C@H](O)[C@H](NC)[C@H]2O[C@]3(O)[C@H](O[C@@H]2[C@H]1O)O[C@H](C)C[C@H]3NC(=O)Cc1ccc(Cl)cn1 | B2 bradykinin receptor (BDKRB2, Homo sapiens, UniProt P30411) | ligand displacement, radioligand |  | 10 µM | inhibition | 2% |

Some of these lines once more:
| SMILES | target or system | test | test system | setting | quantity | value |
| --- | --- | --- | --- | --- | --- | --- |
| CCCCCCCCCCCCCCCCCC(=O)NC[C@H]1CC[C@H](C(=O)N[C@@H](CCC(=O)NCCCOCCOCCOCCCNC(=O)COCC(=O)N[C@@H](Cc2ccc(O)cc2)C(=O)NC(C)(Cc2ccccc2)C(=O)N[C@@H](CC(C)C)C(=O)N[C@@H](CCCC)C(=O)N[C@@H](CCCNC(=N)N)C(=O)N2CCC[C@H]2C(=O)N[C@@H](CCCNC(=N)NC)C(=O)N[C@@H](CC(N)=O)C(N)=O)C(=O)O)CC1 (stereo partly drawn) | Prolactin-releasing peptide receptor (PRLHR, Homo sapiens, UniProt P49683) | antagonist, DiscoverX GPCR panel |  | 1 µM | inhibition | 58% |
| CC(=O)NC[C@@H]1[C@@H](O)C[C@H]2[C@H](O)C[C@@H](CO)N12 | Spodoptera litura β-N-acetylglucosaminidase |  | crude enzyme | 0.107 µM, run 2, with: p-nitrophenyl GlcNAc | inhibition | 18.3% |
